Assay results gathered from unrelated publications.
Values joined by “and” are separate records of one study, mostly repeats; a detail may differ.
Protein-S-isoprenylcysteine O-methyltransferase: Protein-S-isoprenylcysteine O-methyltransferase (Homo sapiens, UniProt O60725)
PTGS2: Prostaglandin G/H synthase 2 (PTGS2, Homo sapiens, UniProt P35354)
CCKBR: Gastrin/cholecystokinin type B receptor (CCKBR, Homo sapiens, UniProt P32239)
USP5: Ubiquitin carboxyl-terminal hydrolase 5 (USP5, Homo sapiens, UniProt P45974)
DRD3: D(3) dopamine receptor (DRD3, Homo sapiens, UniProt P35462)
Coelenterazine h 2-monooxygenase: Coelenterazine h 2-monooxygenase (Renilla reniformis, UniProt P27652)
NEK8: Serine/threonine-protein kinase Nek8 (NEK8, Homo sapiens, UniProt Q86SG6)

CN(C)C/C=C/C(=O)Nc1ccc2nc(NCCCCCN(C)C)nc(NCCCCCCN(C)C)c2c1 — inhibition (PRMT6 (Homo sapiens, UniProt Q96LA8); enzyme activity, inhibitor, radiometric; 50 µM): 89%
CS(=O)(=O)Nc1cccc(-c2csc3cnc(Nc4ccc(N5CCN(CCCCCOc6cccc7c6C(=O)N(C6CCC(=O)NC6=O)C7=O)CC5)cc4)nc23)c1 (centres unmarked) — inhibition (STE20-related kinase adapter protein beta (Homo sapiens, UniProt Q9C0K7); probe labelling, inhibitor, KiNativ chemoproteomics; MOLT-4; 1 µM): 7.18%
C/C=C/C(=O)Nc1ccc2nc(NCCCCCN(C)C)nc(NCCCCCCN(C)C)c2c1 — inhibition (SUV39H2 (Homo sapiens, UniProt Q9H5I1); enzyme activity, inhibitor, radiometric; 50 µM): 1%
CCCCCCCCN(CCC(=O)Nc1ccccc1)C(=O)c1nc[nH]n1 — inhibition (Protein-S-isoprenylcysteine O-methyltransferase; enzyme activity; Sf9 membranes; 50 µM, together with: [3H]S-adenosylmethionine, biotin-farnesyl-L-cysteine): 0%
CS(=O)(=O)c1ccc(-n2cc(C=NN=c3[nH]c(-c4ccc([N+](=O)[O-])cc4)cs3)c(-c3ccc([N+](=O)[O-])cc3)n2)cc1 — inhibition (PTGS2; enzyme activity; 0.01 µM): 7.84%
C[Si](C)(C)C[C@@H](CN)CC(=O)O — inhibition (CCKBR; cell-free assay, inhibitor; 75 µM): -2%
CC(=O)c1cnc(N)nc1N1CC[C@H]1c1nn2ccc(Cl)c2c(=O)n1-c1ccccc1 — inhibition (PI3-kinase catalytic subunit delta (Rattus norvegicus, UniProt A0A8I5Y949); kinase binding, KiNativ; rat white blood cells; 1 µM, 1 h, intact cells): 95.3%
O=C1NC(=O)C(CCCO)C(=O)C1=NNc1c(Cl)cccc1Cl (centres unmarked) — inhibition (USP5; enzyme activity, inhibitor; 17 µM): 28%
CCCCCCCCN(CCC(=O)Nc1ccccc1)C(=O)c1ccco1 — inhibition (Protein-S-isoprenylcysteine O-methyltransferase; enzyme activity; Sf9 membranes; 50 µM, together with: [3H]S-adenosylmethionine, biotin-farnesyl-L-cysteine): 49%
O=c1c(=NO)c(=O)c2ccccc12 — inhibition (USP5; enzyme activity, inhibitor; 17 µM): 94%
CC(C)Cc1ccc(-c2nn(-c3ccc(S(C)(=O)=O)cc3)cc2C=NN=c2[nH]c(-c3ccc(Br)cc3)cs2)cc1 — inhibition (PTGS2; enzyme activity; 0.1 µM): 38.4%
COc1cc(C=NCCN=Cc2ccc(O)c(OC)c2)ccc1O — inhibition (USP5; enzyme activity, inhibitor; 17 µM): 11%
C[Si]1(C[C@H](CN)CC(=O)O)CCCC1 — inhibition (NMDA receptor, rat; binding, radioligand binding; 70 µM, together with: [3H]TCP): -1%
COc1ccc(-c2ccc(CNCCc3ccc(S(N)(=O)=O)cc3)o2)cc1Cl — inhibition (DRD3; enzyme activity, inhibitor; 10 µM): 23.2%
CC(=O)C12NC(C)(C)CC1(C)C(=O)C1=C2c2c(c3c4n2C(C)(C)CC2=C4C4(CC(C)(C)NC(C)(C4)C2=O)CC3(C)C)C(=O)C(C)(C)N1 (single isomer, unassigned; (+)) — inhibition (KCNQ2 (Homo sapiens, UniProt O43526); ion current, inhibitor, patch clamp; HEK-293T; 40 µM): 8%
COc1ccc(S(=O)(=O)N2CCc3ccccc3C2)cc1N1CCN(C(=O)c2ccc(F)cc2C(F)(F)F)CC1 — inhibition (CCKBR; ligand displacement, radioligand; 1 µM): 9.7%
CCCCCCCCN(CCC(=O)Nc1ccccc1)C(=O)c1ccc(NC(C)=O)cc1 — inhibition (Protein-S-isoprenylcysteine O-methyltransferase; enzyme activity; Sf9 membranes; 50 µM, together with: [3H]S-adenosylmethionine, biotin-farnesyl-L-cysteine): 10%
Cc1ccc(-c2nn(-c3ccc(S(C)(=O)=O)cc3)cc2C=NN=c2[nH]c(-c3ccc([N+](=O)[O-])cc3)cs2)cc1 — inhibition (PTGS2; enzyme activity; 0.01 µM): 14%
O=C1c2sc(-c3ccc(N4CCC(CO)CC4)nc3F)nc2CCN1c1cccnc1 — inhibition (TNF-alpha (human); radioligand binding, BioPrint binding panel; 1 µM, together with: agonist radioligand): -16%
CN(Cc1ccc(/C=C/C(=O)NO)cc1)CC12CC3CC(CC(C3)C1)C2 — inhibition (human 5-HT6 receptor; agonist radioligand binding; 0.05 µM): -12%
COc1cccc(-c2cc(F)c(NC(=O)Nc3sc(C)nc3C(=O)O)c(F)c2)c1 — inhibition (DHODH (Homo sapiens, UniProt Q02127); enzyme activity, DCIP colorimetric; 0.10 µM): 91.5% and 92.4% and 93.3%
NN[C@@H](c1nnnn1CCc1ccccc1)C1CCCCC1 — inhibition (Endothiapepsin (EAPA, Cryphonectria parasitica, UniProt P11838); enzyme activity, inhibitor; 200 µM): 36.9%
COc1ccc(C#CC2=C[C@H]3C[C@@]4(OC(=O)C=C24)[C@H]2CC[C@H](C(OC)OC)N32)cc1 — inhibition (Androgen receptor (AR, Homo sapiens, UniProt P10275); radioligand binding, radioligand displacement; 10 µM): 53%
On1ccc2c(Br)cncc21 — inhibition (USP5; enzyme activity, inhibitor; 17 µM): 77%
CCCCCCCCN(CCC(=O)Nc1ccccc1)C(=O)c1cccnc1 — inhibition (Protein-S-isoprenylcysteine O-methyltransferase; enzyme activity; Sf9 membranes; 50 µM, together with: [3H]S-adenosylmethionine, biotin-farnesyl-L-cysteine): 38%
CC1CCC(C(C)C)C(OC(=O)Cn2c(-c3ccc(Br)cc3)[n+](C)c3ccccc32)C1.[Cl-] (centres unmarked) — inhibition (Coelenterazine h 2-monooxygenase; luciferase activity, inhibitor, luminescence counter-screen; concentration not given, test 2): 103% and 128%
CS(=O)(=O)c1ccc(-n2cc(C=NN=c3[nH]c(-c4ccc(Br)cc4)cs3)c(-c3ccc([N+](=O)[O-])cc3)n2)cc1 (mixture of isomers) — inhibition (PTGS2; enzyme activity; 1 µM): 28.5%
CN1CCN(Cc2ccc(-c3ccc(CO[C@H]4CCC[C@@H]4NC(=O)c4cc(-c5cnn(C)c5)cnc4N)cc3)cc2)CC1 — inhibition (NEK8; enzyme activity, inhibitor; 0.1 µM): 4%
Cc1ccc(-c2nn(-c3ccc(S(C)(=O)=O)cc3)cc2C=NN=c2[nH]c(-c3ccc(Br)cc3)cs2)cc1 (mixture of isomers) — inhibition (PTGS2; enzyme activity; 1 µM): 52.7%
COc1ccccc1Nc1nc(NCC2CCCO2)c2ccccc2n1 (centres unmarked) — inhibition (Coelenterazine h 2-monooxygenase; luciferase activity, inhibitor, luminescence counter-screen; concentration not given, test 1): 78% and 84.5%
Cc1[nH]nc2c1N=C(c1ccccc1Cl)c1cnc(N3CCOCC3)cc1N2 — inhibition (CYSLTR1 (Homo sapiens, UniProt Q9Y271); cell-free assay; 10 µM): 17%
CN1C=C/C(=C\c2cc[n+](C)c3ccccc23)c2ccccc21 — inhibition (Coelenterazine h 2-monooxygenase; luciferase activity, inhibitor, luminescence counter-screen; concentration not given, test 1): 104% and 99.7%
C/C=C(/C)C(=O)O[C@@H]1C=C(C)CC[C@]2(O)[C@@H](C(C)C)CC(=O)[C@]12C — inhibition (PTGS2; enzyme activity, inhibitor; 0.98 µg/mL): 0%
CS(=O)(=O)c1ccc(-n2cc(C=NN=c3[nH]c(-c4ccc(Br)cc4)cs3)c(-c3ccc(Br)cc3)n2)cc1 — inhibition (PTGS2; enzyme activity; 100 µM): 91.2%
C=CC(=O)N1Cc2nc(-c3cc(-c4cc(Cl)cnc4Cl)c(F)cc3F)n(-c3ccncn3)c2C1 — inhibition (NEK8; cell-free assay, inhibitor; 1 µM): -3.4%
CS(=O)(=O)c1ccc(-n2cc(C=NN=c3[nH]c(-c4ccc([N+](=O)[O-])cc4)cs3)c(-c3ccc(Br)cc3)n2)cc1 — inhibition (PTGS2; enzyme activity; 1 µM): 41.9%
Nc1n[nH]c2cc(O)nc(O)c12 — inhibition (USP5; enzyme activity, inhibitor; 17 µM): 97%
O=C1c2sc(-c3ccc(N4CCC(F)C4)nc3F)nc2CCN1c1cccnc1 (centres unmarked) — inhibition (HRH1 (Homo sapiens, UniProt P35367); ligand displacement, radioligand; 1 µM): 2%
Br.CCCCCCCCCn1c2c(c(=N)c3c1CCC3)CCCC2 — inhibition (Coelenterazine h 2-monooxygenase; luciferase activity, inhibitor, luminescence counter-screen; concentration not given, test 3 new dilution): 78.9% and 58%
CO[C@@H]1OC[C@@H](O)[C@H](O)[C@H]1O — inhibition (PTGS2; enzyme activity, inhibitor; 15.63 µg/mL): 81.4%
CCCCCCCCN(CCC(=O)Nc1ccccc1)C(=O)c1cc[nH]c1 — inhibition (Protein-S-isoprenylcysteine O-methyltransferase; enzyme activity; Sf9 membranes; 50 µM, together with: [3H]S-adenosylmethionine, biotin-farnesyl-L-cysteine): 81%
CC(=O)Nc1ccc(C2CCCCC2)cc1 — hepatic clearance (liver microsome stability; dog liver microsomes; 1 µM): 30 mL/min/kg
O=C1NC(=Cc2ccc(O)cc2)C(=O)c2ccccc21 — inhibition (USP5; enzyme activity, inhibitor; 17 µM): 95%
CC=C(C)C(=O)OC1CC2C(C=C(C)C3C(OC(C)=O)CC(=O)C13C)OC(=O)C2C (centres unmarked) — inhibition (PTGS2; enzyme activity, inhibitor; 3.9 µg/mL): 0%
Cc1cc(=O)oc2nc(S)nc(O)c12 — inhibition (USP5; enzyme activity, inhibitor; 17 µM): 6%
F[C@@H]1[C@H](c2ccc(-c3cncnc3)cc2)[C@H](F)[C@H](F)C[C@@H]1F — hepatic clearance (hepatocyte stability; cryopreserved rat hepatocytes; 1 µM): 24 mL/min/kg
COc1cc(C(C)=O)ccc1OCC(O)CN1CCN(c2cccc(Cl)c2)CC1 (centres unmarked) — inhibition (DRD3; enzyme activity, inhibitor; 10 µM): 9.8%
Cc1ccc2c(c1)sc(-c1ccc(N(C)C)cc1)[n+]2C.[I-] — inhibition (Coelenterazine h 2-monooxygenase; luciferase activity, inhibitor, luminescence counter-screen; concentration not given, test 3 new dilution): 89.2% and 91.2%
Cc1cc(N)c(O)cc1C — inhibition (USP5; enzyme activity, inhibitor; 17 µM): 65%
N=C(N)NCCCC(NC(=O)C(CC(=O)NO)Cc1ccc2ccccc2c1)C(=O)NC(Cc1c[nH]c2ccccc12)C(=O)NC(CCC(=O)O)C(N)=O (centres unmarked) — inhibition (Neprilysin (MME, Homo sapiens, UniProt P08473); 1 µM): -10%

For quick reference, copied from above:
COc1cc(C=NCCN=Cc2ccc(O)c(OC)c2)ccc1O — inhibition (USP5; enzyme activity, inhibitor; 17 µM): 11%
C[Si]1(C[C@H](CN)CC(=O)O)CCCC1 — inhibition (NMDA receptor, rat; binding, radioligand binding; 70 µM, together with: [3H]TCP): -1%
COc1ccc(-c2ccc(CNCCc3ccc(S(N)(=O)=O)cc3)o2)cc1Cl — inhibition (DRD3; enzyme activity, inhibitor; 10 µM): 23.2%
